Measurements from different studies.
Numbered parts are unrelated; each lists some results of a single study. Substitutions count along the parent as printed.

Series 1
Target: CCNA1, cyclin fold, Cln2 fusion (human)
Technique: yeast growth competition, sequencing
Matrix: yeast
Setting: weak parent motif
Relative to: not given
Reading: higher = stronger binding
Starting sequence: FOXM1 docking peptide (human); PHLARPIKVESPP; partner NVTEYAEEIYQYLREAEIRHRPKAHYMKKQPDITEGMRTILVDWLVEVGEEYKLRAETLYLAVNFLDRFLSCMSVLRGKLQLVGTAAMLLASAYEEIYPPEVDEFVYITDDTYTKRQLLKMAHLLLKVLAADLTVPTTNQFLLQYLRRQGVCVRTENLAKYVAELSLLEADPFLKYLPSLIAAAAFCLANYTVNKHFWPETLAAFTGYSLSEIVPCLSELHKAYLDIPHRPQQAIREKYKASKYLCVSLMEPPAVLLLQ
| Variant | normalised enrichment score |
| --- | --- |
| PHLARAIKVESPP [P6A] | 0.0407 |
| PHAARPIKVESPP [L3A] | 0.154 |
| PHLARPIAVESPP [K8A] | 0.00828 |
| AHLARPIKVESPP [P1A] | -0.301 |
| PHLARPIKAESPP [V9A] | 0.126 |
| PHLARPIKVEAPP [S11A] | -0.128 |

Series 2
Target: ABI1, truncated, D143A, DHFR fusion (Arabidopsis thaliana)
Technique: DHFR PCA, deep sequencing
Matrix: yeast
Setting: methotrexate growth selection, single substitutions
Added: (+)-ABA 58 µM
Relative to: wild-type fitted maximum
Reading: higher = stronger binding
Starting sequence: PYL1, truncated, DHFR fusion (Arabidopsis thaliana); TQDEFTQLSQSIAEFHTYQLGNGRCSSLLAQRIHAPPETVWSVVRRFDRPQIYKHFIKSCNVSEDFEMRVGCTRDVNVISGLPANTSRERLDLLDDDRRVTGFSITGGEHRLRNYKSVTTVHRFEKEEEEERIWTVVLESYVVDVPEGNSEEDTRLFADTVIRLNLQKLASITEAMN
| Variant | relative binding score |
| --- | --- |
| A84H | 28.6% |
| T39H | 80.1% |
| I52E | 79.4% |
| E139F | -8.69% |
| D95Q | 46.4% |
| E130P | 105% |
| E64G | 84.3% |
| V43C | 51.5% |
| G107V | 10.5% |
| P146Q | 32.9% |
| E152T | 80% |
| Q31G | 12.4% |
| V161F | 74.6% |
| W41N | -3.6% |
| V44I | 87.9% |
| E38K | 66.4% |
| A13R | 82.1% |
| N114D | 47% |

Series 3
Target: Prothrombin, mature alpha-thrombin (F2, Homo sapiens, UniProt P00734)
Technique: aptamer microarray, sandwich
Form: DNA with 2'F-ANA
Matrix: in vitro
Concentration: 200 nM
Setting: whole 15-mer aptamer, many near background
Added: Cy3 exosite-II aptamer, 400 nM
Reading: higher = stronger binding
Sequence: GGTTGGTGTGGTTGG
| Modification | mean fluorescence intensity |
| --- | --- |
| 2'F-ANA at 1 5 6 7 9 10 11 12 14 | 105 a.u. |
| 2'F-ANA at 1 3 5 6 8 9 11 12 13 14 | 50 a.u. |
| 2'F-ANA at 2 3 4 9 10 11 14 | 178 a.u. |
| 2'F-ANA at 1 4 5 7 12 14 15 | 48.5 a.u. |
| 2'F-ANA at 1 3 7 8 9 14 15 | 103 a.u. |
| 2'F-ANA at 1 4 5 6 11 13 14 | 43.4 a.u. |
| 2'F-ANA at 1 2 4 5 9 14 15 | 49.6 a.u. |
| 2'F-ANA at 7 8 9 11 13 14 | 204 a.u. |
| 2'F-ANA at 1 3 6 9 10 11 12 15 | 94.7 a.u. |
| 2'F-ANA at 3 4 6 7 8 9 10 12 13 15 | 230 a.u. |
| 2'F-ANA at 1 3 5 8 9 11 13 14 15 | 48.5 a.u. |
| 2'F-ANA at 2 3 7 8 9 10 11 12 13 14 | 283 a.u. |
| 2'F-ANA at 2 3 8 9 11 13 15 | 646 a.u. |
| 2'F-ANA at 1 3 5 6 8 10 11 12 13 14 | 116 a.u. |
| 2'F-ANA at 1 4 7 10 12 13 14 | 42.1 a.u. |
| 2'F-ANA at 1 3 4 10 11 12 13 14 15 | 58.2 a.u. |
| 2'F-ANA at 2 3 4 5 8 9 11 12 13 | 108 a.u. |
| 2'F-ANA at 2 4 5 6 9 11 12 14 15 | 52.5 a.u. |
| 2'F-ANA at 2 4 8 9 10 12 | 125 a.u. |
| 2'F-ANA at 9 12 14 15 | 242 a.u. |
| 2'F-ANA at 1 2 5 8 9 10 12 13 14 15 | 45.9 a.u. |
| 2'F-ANA at 1 5 6 10 11 13 14 | 48.5 a.u. |
| 2'F-ANA at 2 3 8 9 10 11 14 | 267 a.u. |
| 2'F-ANA at 2 5 8 9 10 12 14 15 | 53.7 a.u. |

Series 4
Target: Sal-like protein 4, full length isoform B (SALL4, Homo sapiens, UniProt Q9UJQ4-2, residues 1-616)
Technique: universal PBM
Form: double-stranded DNA, one strand shown
Matrix: in vitro
Concentration: not given
Setting: 8-mer, flanks averaged, mean of replicates
Reading: higher = stronger binding
Target sequence (chain): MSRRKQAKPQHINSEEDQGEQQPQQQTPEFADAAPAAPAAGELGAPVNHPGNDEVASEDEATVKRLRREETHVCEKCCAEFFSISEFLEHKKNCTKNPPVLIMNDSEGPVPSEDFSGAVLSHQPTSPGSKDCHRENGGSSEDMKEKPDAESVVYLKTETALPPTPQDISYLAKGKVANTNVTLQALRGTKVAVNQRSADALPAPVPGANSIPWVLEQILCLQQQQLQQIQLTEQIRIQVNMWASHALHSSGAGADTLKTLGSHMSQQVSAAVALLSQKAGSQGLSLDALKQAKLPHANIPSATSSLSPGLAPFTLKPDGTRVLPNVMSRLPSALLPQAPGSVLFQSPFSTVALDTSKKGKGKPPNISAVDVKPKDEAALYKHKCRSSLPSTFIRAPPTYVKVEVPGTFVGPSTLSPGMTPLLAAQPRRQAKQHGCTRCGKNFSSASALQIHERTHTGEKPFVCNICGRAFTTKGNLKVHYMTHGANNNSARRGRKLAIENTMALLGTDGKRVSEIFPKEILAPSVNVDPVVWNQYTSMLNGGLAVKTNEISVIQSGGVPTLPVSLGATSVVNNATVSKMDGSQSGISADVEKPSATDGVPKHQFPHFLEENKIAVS
| Sequence | E-score |
| --- | --- |
| CATGCGCA | 0.0167 |
| CCCGGCAG | -0.389 |
| ACTTGTCG | -0.088 |
| ACCTCTAA | -0.0513 |
| ACGGGTTC | -0.213 |
| AAGCCCAT | -0.094 |
| AGATAGAT | 0.0922 |
| ACTCCGGC | -0.26 |
| TATCGATA | 0.088 |
| ACTAATAG | 0.166 |
| GGAGGCGA | -0.285 |
| GTCAACTA | 0.162 |
| ACGTTAAC | 0.103 |
| ACAGAGCC | -0.197 |
| CCCGTATC | -0.162 |
| CTCTACTC | -0.0281 |
| CCTGTAAA | 0.0438 |
| CAATCCTA | -0.0059 |

Series 5
Target: Interferon regulatory factor 3, full length, phosphomimetic (IRF3, Homo sapiens, UniProt Q14653, residues 1-427, S386D/S396D/S398D/S402D/T404D/S405D)
Technique: protein-binding microarray
Form: double-stranded DNA, one strand shown
Matrix: in vitro
Concentration: 2540 nM top
Setting: 60-bp whole probe
Added: salmon DNA 0.4 mg/ml
Relative to: random background probes
Reading: higher = stronger binding
All sequences stand within: GCCTAGCAC … GTCTTGATTCGCTTGACGCTGCTG
Residues (chain): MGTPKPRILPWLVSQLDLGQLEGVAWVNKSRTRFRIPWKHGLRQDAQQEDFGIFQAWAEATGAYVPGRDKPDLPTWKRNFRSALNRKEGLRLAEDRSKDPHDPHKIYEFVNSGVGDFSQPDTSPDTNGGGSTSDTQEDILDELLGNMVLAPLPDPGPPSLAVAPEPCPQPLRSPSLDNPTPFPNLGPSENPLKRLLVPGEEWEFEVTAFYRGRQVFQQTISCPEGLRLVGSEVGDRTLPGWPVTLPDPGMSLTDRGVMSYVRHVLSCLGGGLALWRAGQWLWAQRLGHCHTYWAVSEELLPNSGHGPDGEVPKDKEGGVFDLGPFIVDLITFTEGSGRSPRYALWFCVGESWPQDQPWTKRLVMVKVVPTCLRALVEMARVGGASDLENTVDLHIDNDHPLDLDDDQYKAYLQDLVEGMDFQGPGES
| Sequence | fitted relative affinity |
| --- | --- |
| TCACTCTTCTTTTTTTTACTGTGCTAG | 1.91 z-score |
| TCAGTTTTGAGTTTTCCACTGTGCTAG | 1.53 z-score |
| GACGATTTCGTGACTGGAGACGTGCTA | 0.798 z-score |
| CTATGAAGTCATGTCTTCAGGTGCTAG | -0.265 z-score |
| GACGGTATCGACTTACGGGACGTGCTA | 1.06 z-score |
| TTAGGTTTCGGGACTGGGTTTGTGCTA | 4.02 z-score |
| TTAGATCTCAGTATCGAATAGTGCTAG | 0.74 z-score |
| ACATATATACAGAGATAGATGTGCTAG | 0.669 z-score |
| TCATGGTTCTTGCTTGGTACTGTGCTA | -0.702 z-score |
| TGGAAACTCGTATGTGACCTTGTGCTA | -0.258 z-score |
| TCATTTTCATTGTTTTTCACTGTGCTA | 2.09 z-score |
